# Experimental data collected from several papers.
# Compare with care: the assays were run in different laboratories. Numbers after ± are the reported error. Ends that are not written are not given here. * marks the point of attachment.
# Cell line: MDA-MB-231
Substance,test,conditions,scale,endpoint,value
COc1ccc(N2CCN(CC(=O)Nc3ccc(C(=O)C=Cc4ccc(C)cc4)cc3)CC2)cc1,"cell growth or viability, MTT",,,IC50,77.2 µM
NCCC(=O)Nc1ccccc1/N=c1\cc(-c2ccc3nc(N)oc3c2)oc2ccc(F)cc12,"cell growth or viability, CCK-8",1 µM,,inhibition,> 70%
heparin,"cell migration, wound healing","6 µM, 20 h",,maximal inhibition,~18%
COC(=O)c1c(-c2ccc(OC)cc2)c2n(c1C(=O)OC)CCn1cccc1-2,"cell growth or viability, MTT",48 h,,IC50,82.5 µM
CSc1nccc(NCc2ccc(CNc3ncc(F)cn3)cc2)n1,cell invasion (Matrigel),"10 nM, with: CXCL12 200 ng/mL",,inhibition,> 60%
C[C@]12CCc3c(ccc4ccc(O)cc34)[C@@H]1C[C@@H](O)C2,cell growth,,,GI50,~0.8 µM
CCCCCCCC(=O)NCCCC[C@H](N)C(=O)NCCCNCCCCNCCCN,cell growth,"6 days, with: DFMO 5.0 mM, spermidine 0.5 µM, aminoguanidine 1.0 mM",,EC50,1.1 µM
O=C(N/N=C/c1ccc(O)c(O)c1)c1cc2ccccc2cc1O,"endocytosis inhibitor, flow cytometry","80 µM, 1 h, 37 °C, with: lipopeptide-siRNA complex, methyl-β-cyclodextrin 3.5 mM",,siRNA uptake,decreased
Fc1nccc(NCc2ccc(CNc3ccnc(F)n3)cc2)n1,cell invasion (Matrigel),"10 nM, with: CXCL12 200 ng/mL",,inhibition,> 60%
COC(=O)c1c(-c2cccc(C)c2)c2n(c1C(=O)OC)CCn1cccc1-2,"cell growth or viability, MTT",48 h,,IC50,88.1 µM
C#C[C@@]1(O)[C@@H](CO)O[C@@H](n2cc(Br)c3c(N)ncnc32)[C@@H]1O,SRB,48 h,,GI50,0.136 ± 0.08 µM
Dnp-KEQNPIYWARYADWLFTTPLLLLELALLVDADEGTG (DNP-labelled; Dnp = O=[N+]([O-])c1ccc(*)c([N+](=O)[O-])c1),ADCC,"1 µM, 4 h, pH 7.4, effector:target 50:1, with: anti-DNP antibody, PBMC",,cell lysis,40%
COC(=O)c1c(-c2ccc(F)cc2)c2n(c1C(=O)OC)CCn1cccc1-2,"cell growth or viability, MTT",48 h,,IC50,84.2 µM
Fc1cnc(NCc2ccc(CNc3ncc(F)cn3)cc2)nc1,cell invasion (Matrigel),"10 nM, with: CXCL12 200 ng/mL",,inhibition,> 75%
COC(=O)c1c(-c2cccc(O)c2)c2n(c1C(=O)OC)CCn1cccc1-2,"cell growth or viability, MTT",48 h,,IC50,87.4 µM
c1ccc(CN(Cc2cccc(CN(Cc3ccccc3)CC3CC3)n2)CC2CC2)cc1,Matrigel invasion,"100 nM, 22 h, with: CXCL12 200 ng/mL",,invasion inhibition,100%
COc1cc([C@@H]2c3cc4c(cc3[C@@H](O[C@@H]3O[C@@H]5CO[C@@H](C)O[C@H]5[C@H](O)[C@H]3O)[C@H]3COC(=O)[C@H]23)OCO4)cc(OC)c1O,"cell growth or viability, MTT",48 h,,IC50,30.6 µM
CC(=O)N1N=C(c2ccc(NC(=O)CN3CCN(c4ccc(Cl)cc4)CC3)cc2)CC1c1ccc(C)cc1 (centres unmarked),"cell growth or viability, MTT",,,IC50,56.1 µM
Cc1cccc(-c2c3n(c4c(=O)[nH]nc(O)c24)CCn2cccc2-3)c1,"cell growth or viability, MTT",48 h,,IC50,65.9 µM
Cn1cnc(N)c2ncnc1-2,MTT,"1 mM, 1 h pretreatment, with: LYN-1604 2.0 µM",reference: LYN-1604 alone,viability,increased

# Excerpt of the above:
Substance,test,conditions,scale,endpoint,value
COC(=O)c1c(-c2cccc(C)c2)c2n(c1C(=O)OC)CCn1cccc1-2,"cell growth or viability, MTT",48 h,,IC50,88.1 µM
